# Measured values from different studies.
# Chains of the proteins cited; added tags and fusions are not shown. Lines headed by an entry give the natural chain unless they say otherwise; changes in a name come on top. Residues count along the entry.
# UniProt P27338, whole entry: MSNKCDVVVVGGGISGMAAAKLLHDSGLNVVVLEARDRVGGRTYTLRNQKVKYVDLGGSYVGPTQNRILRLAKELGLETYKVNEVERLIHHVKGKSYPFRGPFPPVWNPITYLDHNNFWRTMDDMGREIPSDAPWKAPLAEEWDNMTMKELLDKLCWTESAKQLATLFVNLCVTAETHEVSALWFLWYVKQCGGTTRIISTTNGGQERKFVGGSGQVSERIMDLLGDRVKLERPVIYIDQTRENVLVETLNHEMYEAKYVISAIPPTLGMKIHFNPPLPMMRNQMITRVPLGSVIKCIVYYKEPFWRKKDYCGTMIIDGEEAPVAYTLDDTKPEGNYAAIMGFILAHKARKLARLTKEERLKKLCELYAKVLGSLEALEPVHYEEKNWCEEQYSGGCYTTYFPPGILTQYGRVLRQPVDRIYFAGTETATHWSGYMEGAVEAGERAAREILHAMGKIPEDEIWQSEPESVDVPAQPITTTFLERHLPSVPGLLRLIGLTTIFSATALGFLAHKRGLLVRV
# UniProt P06276, whole entry, looked up: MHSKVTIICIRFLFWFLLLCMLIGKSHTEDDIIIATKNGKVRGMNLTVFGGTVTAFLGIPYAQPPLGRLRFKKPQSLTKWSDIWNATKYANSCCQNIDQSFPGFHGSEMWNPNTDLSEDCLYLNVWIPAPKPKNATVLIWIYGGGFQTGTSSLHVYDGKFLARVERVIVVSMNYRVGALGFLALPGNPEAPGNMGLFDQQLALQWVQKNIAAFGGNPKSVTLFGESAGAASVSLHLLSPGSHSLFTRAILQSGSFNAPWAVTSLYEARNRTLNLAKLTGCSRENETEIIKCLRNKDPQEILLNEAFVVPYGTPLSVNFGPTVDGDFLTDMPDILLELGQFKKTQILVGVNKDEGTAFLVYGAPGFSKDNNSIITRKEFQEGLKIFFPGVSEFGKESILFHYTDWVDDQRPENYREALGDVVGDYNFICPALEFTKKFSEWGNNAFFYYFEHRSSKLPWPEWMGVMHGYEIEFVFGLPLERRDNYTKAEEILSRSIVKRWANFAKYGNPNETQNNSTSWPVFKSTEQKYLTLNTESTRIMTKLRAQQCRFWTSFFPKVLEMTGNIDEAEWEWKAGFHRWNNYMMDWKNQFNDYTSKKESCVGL
# UniProt P0ABB4, 2-460 limits assumed: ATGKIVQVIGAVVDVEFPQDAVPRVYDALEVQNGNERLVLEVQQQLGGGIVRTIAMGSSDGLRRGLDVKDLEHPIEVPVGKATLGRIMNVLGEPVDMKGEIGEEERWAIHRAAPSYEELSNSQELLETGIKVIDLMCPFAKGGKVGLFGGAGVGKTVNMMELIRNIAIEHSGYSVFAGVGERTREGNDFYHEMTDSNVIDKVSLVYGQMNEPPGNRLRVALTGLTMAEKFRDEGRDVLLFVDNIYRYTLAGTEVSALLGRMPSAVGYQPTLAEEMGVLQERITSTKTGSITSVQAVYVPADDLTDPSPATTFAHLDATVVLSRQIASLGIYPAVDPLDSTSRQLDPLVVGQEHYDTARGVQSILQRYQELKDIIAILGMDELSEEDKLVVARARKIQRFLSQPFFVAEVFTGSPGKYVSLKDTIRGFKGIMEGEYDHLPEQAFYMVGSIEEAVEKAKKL
# UniProt P51813, whole entry: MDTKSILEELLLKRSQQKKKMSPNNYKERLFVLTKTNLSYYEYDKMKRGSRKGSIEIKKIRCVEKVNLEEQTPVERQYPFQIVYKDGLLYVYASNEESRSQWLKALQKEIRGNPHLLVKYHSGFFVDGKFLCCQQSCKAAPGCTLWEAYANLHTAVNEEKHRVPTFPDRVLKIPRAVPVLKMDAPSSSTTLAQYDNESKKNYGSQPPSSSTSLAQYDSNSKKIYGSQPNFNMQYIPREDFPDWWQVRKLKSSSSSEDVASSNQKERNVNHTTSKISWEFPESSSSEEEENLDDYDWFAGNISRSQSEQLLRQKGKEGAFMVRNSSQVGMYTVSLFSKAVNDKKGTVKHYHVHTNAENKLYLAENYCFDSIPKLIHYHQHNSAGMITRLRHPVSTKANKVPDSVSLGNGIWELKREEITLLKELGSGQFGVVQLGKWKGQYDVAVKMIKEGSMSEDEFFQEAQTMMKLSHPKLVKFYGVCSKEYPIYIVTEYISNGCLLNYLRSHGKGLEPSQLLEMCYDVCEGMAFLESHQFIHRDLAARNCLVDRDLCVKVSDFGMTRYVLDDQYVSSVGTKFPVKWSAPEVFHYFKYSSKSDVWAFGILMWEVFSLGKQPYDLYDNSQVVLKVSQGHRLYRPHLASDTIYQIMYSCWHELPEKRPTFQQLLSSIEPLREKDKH
# UniProt P21397, whole entry: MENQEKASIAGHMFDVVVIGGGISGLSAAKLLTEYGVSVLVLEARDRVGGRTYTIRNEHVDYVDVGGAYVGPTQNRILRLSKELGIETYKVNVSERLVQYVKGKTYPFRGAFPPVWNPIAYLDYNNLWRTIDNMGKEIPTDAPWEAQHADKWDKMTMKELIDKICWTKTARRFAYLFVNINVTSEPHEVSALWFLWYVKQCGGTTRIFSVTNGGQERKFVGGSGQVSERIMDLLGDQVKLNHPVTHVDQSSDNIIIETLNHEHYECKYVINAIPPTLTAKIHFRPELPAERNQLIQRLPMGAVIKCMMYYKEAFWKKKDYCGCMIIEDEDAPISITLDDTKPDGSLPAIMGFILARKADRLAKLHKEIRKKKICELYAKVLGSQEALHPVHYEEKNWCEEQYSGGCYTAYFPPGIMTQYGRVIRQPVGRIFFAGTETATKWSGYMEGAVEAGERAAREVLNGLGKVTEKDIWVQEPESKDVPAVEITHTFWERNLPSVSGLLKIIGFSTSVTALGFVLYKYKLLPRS
# UniProt Q9NRN9, whole entry: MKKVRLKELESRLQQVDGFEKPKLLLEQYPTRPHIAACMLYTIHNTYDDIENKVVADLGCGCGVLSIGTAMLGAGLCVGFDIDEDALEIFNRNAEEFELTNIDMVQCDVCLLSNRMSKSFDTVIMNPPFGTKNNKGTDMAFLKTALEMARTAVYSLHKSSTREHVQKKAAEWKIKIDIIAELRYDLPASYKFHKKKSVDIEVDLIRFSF
# UniProt P00761, 9-231 limits assumed: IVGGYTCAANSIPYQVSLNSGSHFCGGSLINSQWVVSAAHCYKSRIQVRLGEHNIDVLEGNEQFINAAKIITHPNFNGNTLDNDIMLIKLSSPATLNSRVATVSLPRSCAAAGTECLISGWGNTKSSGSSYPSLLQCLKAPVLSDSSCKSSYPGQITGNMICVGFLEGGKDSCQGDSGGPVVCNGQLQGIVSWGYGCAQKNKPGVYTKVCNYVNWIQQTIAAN
# UniProt P0A800, whole entry, stated change not applied: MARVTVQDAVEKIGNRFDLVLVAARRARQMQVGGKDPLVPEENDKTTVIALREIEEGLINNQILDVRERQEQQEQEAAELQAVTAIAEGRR
# UniProt P0A8V2, whole entry D516V: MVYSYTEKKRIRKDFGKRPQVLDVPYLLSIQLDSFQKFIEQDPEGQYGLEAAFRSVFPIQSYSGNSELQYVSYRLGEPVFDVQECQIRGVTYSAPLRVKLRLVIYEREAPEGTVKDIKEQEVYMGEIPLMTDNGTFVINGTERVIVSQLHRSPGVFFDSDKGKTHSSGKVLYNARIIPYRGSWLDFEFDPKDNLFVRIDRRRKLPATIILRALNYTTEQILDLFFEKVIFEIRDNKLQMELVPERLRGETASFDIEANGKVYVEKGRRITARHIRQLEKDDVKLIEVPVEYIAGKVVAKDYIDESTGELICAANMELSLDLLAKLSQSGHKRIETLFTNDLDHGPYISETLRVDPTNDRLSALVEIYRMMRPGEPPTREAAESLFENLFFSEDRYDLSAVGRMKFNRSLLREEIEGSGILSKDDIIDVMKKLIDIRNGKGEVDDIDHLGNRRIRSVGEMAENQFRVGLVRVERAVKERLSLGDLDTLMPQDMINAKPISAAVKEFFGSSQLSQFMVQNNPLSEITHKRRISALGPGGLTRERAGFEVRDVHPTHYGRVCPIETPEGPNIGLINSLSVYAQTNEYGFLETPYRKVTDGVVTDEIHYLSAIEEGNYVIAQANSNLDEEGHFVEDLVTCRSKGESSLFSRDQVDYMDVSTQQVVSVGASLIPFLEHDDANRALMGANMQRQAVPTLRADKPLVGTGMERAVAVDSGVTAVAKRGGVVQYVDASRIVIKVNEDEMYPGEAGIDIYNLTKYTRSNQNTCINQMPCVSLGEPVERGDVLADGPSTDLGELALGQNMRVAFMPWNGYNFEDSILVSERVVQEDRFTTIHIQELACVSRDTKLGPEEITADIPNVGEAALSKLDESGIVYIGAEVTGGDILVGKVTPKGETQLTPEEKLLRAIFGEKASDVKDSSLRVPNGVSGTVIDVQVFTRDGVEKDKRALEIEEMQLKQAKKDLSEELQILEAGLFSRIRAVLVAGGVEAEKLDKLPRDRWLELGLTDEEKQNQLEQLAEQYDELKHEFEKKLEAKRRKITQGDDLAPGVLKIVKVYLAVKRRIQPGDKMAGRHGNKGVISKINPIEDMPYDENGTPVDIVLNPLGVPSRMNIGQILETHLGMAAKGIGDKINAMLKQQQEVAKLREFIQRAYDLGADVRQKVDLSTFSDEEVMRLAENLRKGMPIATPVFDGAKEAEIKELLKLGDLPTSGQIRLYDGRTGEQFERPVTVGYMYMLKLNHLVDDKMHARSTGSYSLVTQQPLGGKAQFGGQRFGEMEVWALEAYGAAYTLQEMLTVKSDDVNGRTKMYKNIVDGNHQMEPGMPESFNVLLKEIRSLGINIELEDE
# UniProt P0ADG7, whole entry: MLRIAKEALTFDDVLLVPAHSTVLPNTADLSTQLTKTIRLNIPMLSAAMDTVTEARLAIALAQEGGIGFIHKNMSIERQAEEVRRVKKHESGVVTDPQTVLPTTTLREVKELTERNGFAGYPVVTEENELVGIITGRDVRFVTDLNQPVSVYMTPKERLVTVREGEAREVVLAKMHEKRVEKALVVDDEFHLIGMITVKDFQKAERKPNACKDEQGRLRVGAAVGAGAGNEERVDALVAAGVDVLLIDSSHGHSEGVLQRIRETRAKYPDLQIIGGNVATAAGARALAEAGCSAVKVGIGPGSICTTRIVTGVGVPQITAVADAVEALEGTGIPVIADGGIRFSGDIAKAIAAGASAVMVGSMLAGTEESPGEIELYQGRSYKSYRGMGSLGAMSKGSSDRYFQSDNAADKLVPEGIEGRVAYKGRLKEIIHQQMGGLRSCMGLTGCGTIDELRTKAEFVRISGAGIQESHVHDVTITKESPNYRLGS
# UniProt P22303, 32-614 limits assumed: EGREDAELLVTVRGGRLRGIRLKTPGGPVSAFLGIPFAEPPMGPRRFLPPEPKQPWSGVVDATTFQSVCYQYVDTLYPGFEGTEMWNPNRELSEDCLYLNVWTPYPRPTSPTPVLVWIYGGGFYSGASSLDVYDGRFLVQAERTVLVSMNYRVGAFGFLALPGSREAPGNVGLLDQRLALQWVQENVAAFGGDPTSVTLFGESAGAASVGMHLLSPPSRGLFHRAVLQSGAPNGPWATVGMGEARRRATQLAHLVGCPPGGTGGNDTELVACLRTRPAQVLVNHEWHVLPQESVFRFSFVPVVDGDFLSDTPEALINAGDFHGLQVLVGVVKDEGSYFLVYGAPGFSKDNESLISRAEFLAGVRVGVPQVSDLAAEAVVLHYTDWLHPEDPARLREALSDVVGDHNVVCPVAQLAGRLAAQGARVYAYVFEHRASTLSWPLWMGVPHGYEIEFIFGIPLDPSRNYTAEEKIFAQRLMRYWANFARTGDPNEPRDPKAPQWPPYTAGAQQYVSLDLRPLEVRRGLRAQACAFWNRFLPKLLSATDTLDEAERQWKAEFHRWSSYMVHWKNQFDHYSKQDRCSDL
# UniProt O43175, whole entry R135A: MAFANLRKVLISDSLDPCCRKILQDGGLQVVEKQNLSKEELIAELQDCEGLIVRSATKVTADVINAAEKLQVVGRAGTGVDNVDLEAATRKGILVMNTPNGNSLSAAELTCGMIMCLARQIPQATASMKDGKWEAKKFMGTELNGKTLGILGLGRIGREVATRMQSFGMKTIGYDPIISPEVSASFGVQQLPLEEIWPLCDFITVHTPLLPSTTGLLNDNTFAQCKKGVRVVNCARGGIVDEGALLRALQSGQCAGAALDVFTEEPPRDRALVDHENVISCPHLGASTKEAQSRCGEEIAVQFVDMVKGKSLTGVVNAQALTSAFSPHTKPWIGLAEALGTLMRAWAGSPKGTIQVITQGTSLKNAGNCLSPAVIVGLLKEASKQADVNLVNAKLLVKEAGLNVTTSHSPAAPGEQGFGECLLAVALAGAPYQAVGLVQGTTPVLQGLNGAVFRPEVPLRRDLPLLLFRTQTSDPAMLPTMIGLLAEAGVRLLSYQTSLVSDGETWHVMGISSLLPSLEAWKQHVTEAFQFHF
# UniProt Q00534, whole entry: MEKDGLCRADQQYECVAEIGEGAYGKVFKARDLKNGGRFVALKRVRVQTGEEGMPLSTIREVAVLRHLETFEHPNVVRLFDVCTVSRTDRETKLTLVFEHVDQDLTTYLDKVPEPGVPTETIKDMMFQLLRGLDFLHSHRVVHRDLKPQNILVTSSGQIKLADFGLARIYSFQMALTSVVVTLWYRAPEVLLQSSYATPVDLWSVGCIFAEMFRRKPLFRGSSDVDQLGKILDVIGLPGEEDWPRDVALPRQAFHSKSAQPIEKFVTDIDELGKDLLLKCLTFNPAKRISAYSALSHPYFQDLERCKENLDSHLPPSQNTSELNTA
# Protocols differ between the studies behind these lines. Numbers after ± are the reported error.
# MAOB: Amine oxidase [flavin-containing] B (MAOB, Homo sapiens, UniProt P27338)
# BCHE: Cholinesterase (BCHE, Homo sapiens, UniProt P06276)
Compound,target,assay,system,setting,how to read,quantity,result
O=C1NC(=O)N(c2cccc(Br)c2)C(=O)/C1=C/c1c[nH]c2ccccc12,"Prothrombin (F2, Bos taurus, UniProt P00735)",enzyme activity,,"30 min preincubation, added: pyroGlu-Pro-Arg-pNA",,IC50,> 20 µM
CCCCCCC1c2ccc(O)cc2Oc2cc(O)ccc21,"atpA/atpD (Escherichia coli, UniProt P0ABB0+P0ABB4)","ATPase activity, inhibitor",,,,IC50,> 200 µM
CC#C/C(=N\OC[C@H]1COCCN1)c1ccc2ncnc(Nc3ccc(OCc4cccc(F)c4)c(Cl)c3)c2c1,"Cytoplasmic tyrosine-protein kinase BMX (BMX, Homo sapiens, UniProt P51813)",kinase activity,,10 µM,,inhibition,40.6%
O=C(Nc1nc(-c2ccc3ccccc3c2)cs1)c1cccs1,"Amine oxidase [flavin-containing] A (MAOA, Homo sapiens, UniProt P21397)","enzyme activity, inhibitor, fluorescence",,"recombinant human enzyme, added: kynuramine 40 µM",,IC50,1.74 µM
CCN1CCN(Cc2ccc(NC(=O)c3ccc(C)c(/C=C/c4cnc5[nH]ccc5c4OC)c3)cc2C(F)(F)F)CC1,"Serine/threonine-protein kinase WNK1 (WNK1, Homo sapiens, UniProt Q9H4A3)","inhibitor, cell-based kinome screen",,5 µM,reference: vehicle,log2 fold change,-0.683
O=C(COc1ccccc1Cl)N1CCN(c2ccc3nncn3n2)CC1,MAOB,"enzyme activity, inhibitor, fluorescence",,"recombinant human enzyme, added: kynuramine 20 µM",,IC50,16.4 µM
"N#Cc1cc(S(=O)(=O)Nc2ncns2)ccc1OC(CCC12CCC(c3ccccc31)c1ccccc12)COCCN1CCCC1 (single isomer, unassigned)","Sodium channel protein type 9 subunit alpha (SCN9A, Homo sapiens, UniProt Q15858)",inhibitor,,,,IC50,0.00078 µM
O=C(NCc1ccc2c(c1)OCO2)C(=O)Nc1ccccc1,MAOB,"enzyme activity, inhibitor, fluorescence",,"recombinant human enzyme, added: kynuramine 20 µM",,IC50,0.243 µM
Nc1ncnc2c1ncn2[C@@H]1O[C@H](CSCCCNC(=O)NCc2ccc3c(c2)OCO3)[C@@H](O)[C@H]1O,"METTL5, part with Trm112 (Homo sapiens, UniProt Q9NRN9)","methyltransferase activity, inhibitor, MTase-Glo",,,,IC50,8 µM
Cc1ccc(S(=O)(=O)Nc2ccccc2N2CCCCC2)s1,BCHE,"enzyme activity, inhibitor, fluorescence",,,,IC50,19.4 ± 2.23 µM
CC[C@@H](C)[C@@H](NC(=O)C(O)Cc1ccc(O)c(Cl)c1)C(=O)N1C(C(=O)NCCCCN=C(N)N)CC2CCC(OS(=O)(=O)O)CC21 (stereo partly shown),"Trypsin (Sus scrofa, UniProt P00761)","enzyme activity, inhibitor",,,,IC50,0.07 µg/mL
CC(C)Cc1nnc2c(C(=O)NC3c4ccccc4-c4ccccc43)cccn12,"rpoZ/rpoC/rpoB (Escherichia coli, UniProt P0A800+P0A8T7+P0A8V2, D516V)","enzyme activity, inhibitor",,rifampicin-resistant RNA polymerase,,IC50,4 µM
O=C(Cn1c(-c2ccccn2)nc2ccccc21)Nc1ccc2ccccc2c1,"Inosine-5'-monophosphate dehydrogenase (guaB, Escherichia coli K-12, UniProt P0ADG7)","enzyme activity, inhibitor",Escherichia coli,,,IC50,> 10 µM
"CCOC(=O)/C=C1\[C@@H]2CCC[C@@]1(c1cccc(O)c1)CCN2C[C@H]1C[C@@H]1CCNC(=O)c1cc2ccccc2[nH]1 (single isomer, unassigned)","Mu-type opioid receptor (Oprm1, Mus musculus, UniProt P42866)","Gi2 activation, antagonist, BRET",,added: DAMGO 100 nM,,IC50,2.1 µM
CCN(CC)c1ccc2c(O)c(C=Nc3ccc(CC(=O)NNc4c5c(nc6ccccc46)CCCC5)cc3)c(=O)oc2c1,"Acetylcholinesterase (ACHE, Homo sapiens, UniProt P22303)","enzyme activity, inhibitor",,,,IC50,0.02 ± 0.01 µM
O=C(Cc1ccccc1)N1CCN(c2nc3ccccc3s2)CC1,MAOB,"enzyme activity, inhibitor, fluorescence",,"recombinant human enzyme, added: kynuramine 20 µM",,IC50,19.7 µM
O=C(N/N=C/c1cc([N+](=O)[O-])ccc1O)c1ccc(O)cc1O,"D-3-phosphoglycerate dehydrogenase (PHGDH, Homo sapiens, UniProt O43175, R135A)","enzyme activity, inhibitor",,R134A mutant,,IC50,141 ± 4 µM
O=C(NOCC1CC1)c1cc(Br)c(F)c(F)c1Nc1ccc(I)cc1Cl,BCHE,"enzyme activity, inhibitor, fluorescence",,,,IC50,15.9 ± 1.08 µM
Fc1cccc(-n2cnc3c(NCc4nc5cc(Cl)ccc5[nH]4)nc(N4CCNCC4)nc32)c1,"Cyclin-dependent kinase 6, with cyclin D1 (CDK6, Homo sapiens, UniProt Q00534)","enzyme activity, inhibitor",,,,IC50,1.24 µM
